Measured values pooled from the literature.
Protocols differ between the studies behind these lines. Several values in a cell are separate wells, animals, samples, runs or records. ± gives the spread as reported.
Nuclear receptor subfamily 2 group C member 2 ligand-binding domain: Nuclear receptor subfamily 2 group C member 2, ligand-binding domain (Homo sapiens, UniProt P49116)
Sequence of UniProt P49116 (whole entry, looked up): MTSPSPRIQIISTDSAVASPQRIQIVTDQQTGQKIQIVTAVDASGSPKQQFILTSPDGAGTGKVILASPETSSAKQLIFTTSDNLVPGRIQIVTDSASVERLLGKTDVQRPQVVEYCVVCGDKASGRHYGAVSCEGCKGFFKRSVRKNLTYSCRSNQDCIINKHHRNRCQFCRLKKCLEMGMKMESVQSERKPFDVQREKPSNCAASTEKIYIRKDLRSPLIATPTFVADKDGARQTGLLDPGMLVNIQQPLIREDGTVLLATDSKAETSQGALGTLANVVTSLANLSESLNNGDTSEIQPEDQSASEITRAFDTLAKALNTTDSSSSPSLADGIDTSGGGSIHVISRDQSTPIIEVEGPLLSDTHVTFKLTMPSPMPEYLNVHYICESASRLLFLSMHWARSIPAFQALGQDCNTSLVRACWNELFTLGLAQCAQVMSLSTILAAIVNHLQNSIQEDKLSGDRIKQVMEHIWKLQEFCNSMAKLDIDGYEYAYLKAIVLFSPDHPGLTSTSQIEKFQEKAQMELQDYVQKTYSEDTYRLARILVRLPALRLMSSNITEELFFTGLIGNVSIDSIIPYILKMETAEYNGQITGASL
Sequence of UniProt Q04206 (whole entry, looked up): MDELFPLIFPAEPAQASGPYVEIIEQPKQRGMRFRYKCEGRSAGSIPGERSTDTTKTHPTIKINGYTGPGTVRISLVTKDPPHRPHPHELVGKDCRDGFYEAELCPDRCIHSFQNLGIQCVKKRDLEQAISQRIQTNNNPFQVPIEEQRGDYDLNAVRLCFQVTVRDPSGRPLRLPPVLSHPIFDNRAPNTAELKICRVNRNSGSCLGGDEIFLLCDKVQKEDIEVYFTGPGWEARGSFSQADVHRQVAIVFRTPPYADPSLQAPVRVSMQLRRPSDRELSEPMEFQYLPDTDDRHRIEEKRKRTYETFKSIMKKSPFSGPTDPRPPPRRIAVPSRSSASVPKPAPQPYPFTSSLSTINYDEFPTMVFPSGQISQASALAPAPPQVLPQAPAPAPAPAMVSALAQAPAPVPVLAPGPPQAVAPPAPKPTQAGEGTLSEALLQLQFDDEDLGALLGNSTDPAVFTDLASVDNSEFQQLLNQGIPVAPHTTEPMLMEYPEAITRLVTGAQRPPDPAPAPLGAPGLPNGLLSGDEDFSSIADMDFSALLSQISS
Sequence of UniProt P61981 (whole entry, looked up): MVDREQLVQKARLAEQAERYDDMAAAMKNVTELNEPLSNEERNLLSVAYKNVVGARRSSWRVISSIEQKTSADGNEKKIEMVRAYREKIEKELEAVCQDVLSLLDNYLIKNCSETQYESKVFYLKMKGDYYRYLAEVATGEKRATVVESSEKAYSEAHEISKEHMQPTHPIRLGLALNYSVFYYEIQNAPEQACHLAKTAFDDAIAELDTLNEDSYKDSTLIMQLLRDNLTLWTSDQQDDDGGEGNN

SMILES = CCN(CC)Cc1cc(Nc2ccnc3cc(Cl)ccc23)ccc1O; tested on = COS-7; setting = 30 µM, 24 h, 0.1% DMSO, unit not given; scale = reference: vehicle control; endpoint = apoptotic cells; result = 3.6 ± 0.99
SMILES = Cc1ccc(C(C)C)cc1Oc1nccc(-c2c(-c3ccc(C(F)(F)F)cc3)ncn2C2CCNCC2)n1; tested on = transformed sinusoidal endothelial cells (mouse); test = cell viability, XTT; setting = 4 h; endpoint = concentration reducing viability; result = > 10 µM
SMILES = C=C(C)[C@@H]1CC[C@]2(C)CC[C@]3(C)[C@H](CC[C@@H]4[C@@]5(C)CC[C@H](O)C(C)(C)[C@@H]5CC[C@]43C)[C@@H]12; tested on = human gingival fibroblasts; test = cytotoxicity; setting = 48 h; endpoint = IC50; result = > 100 µg/mL
SMILES = COc1c(O)c(C)cc2c1C(=O)c1c(O)cccc1C2=O; tested on = HepaRG co-cultured with HK-2; test = MTT; setting = 33.33 µM, 48 h; scale = reference: untreated control; endpoint = cell viability; result = 50.2 ± 3.11%
SMILES = Cc1cc(C(=O)NC(C)(C)COc2cccc3c2C(N)=NS(=O)(=O)N3)cc(C)n1; tested on = human peripheral blood lymphocytes; test = CBPI, concurrent micronucleus test; setting = 1000 µg/mL, 24 h; scale = reference: vehicle control; endpoint = cytotoxicity; result = 4%
SMILES = COc1cc2nc(NCCCN(C)C)nc(NC3CCN(Cc4ccccc4)CC3)c2cc1OC; tested on = MV4-11; setting = 10 µM; endpoint = cytotoxicity; result = 100%
SMILES = C=C(c1ccc(C(=O)O)cc1)c1cc2c(cc1C)C(C)(C)CCC2(C)C; tested on = COS-7; test = WST-8; setting = 100 µM, 24 h, 0.1% DMSO, unit not given; scale = reference: control; endpoint = metabolic activity; result = 0.15 ± 0.01
SMILES = CC1CS(=O)(=O)CCN1/N=C/c1ccc([N+](=O)[O-])o1 (stereo not shown); tested on = PMA-differentiated THP-1 macrophages; setting = 50 µM, 24 h; endpoint = viability; result = 111 ± 6.9%
SMILES = C#Cc1cccc(Nc2ncnc3cc(OCCOC)c(OCCOC)cc23)c1; tested on = primary mixed glial cells (astrocytes, oligodendrocytes); test = cytotoxicity, sulforhodamine B; setting = 24 h; endpoint = IC50; result = > 100 µM
SMILES = Cc1cc(O)c2c(c1)C(=O)c1cc(O)cc(O)c1C2=O; tested on = HepaRG co-cultured with HK-2; test = MTT; setting = 16.67 µM, 48 h; scale = reference: untreated control; endpoint = cell viability; result = 66.9 ± 6.85%
SMILES = O=C(NOCC(O)CO)c1cc(Br)c(F)c(F)c1Nc1ccc(I)cc1F (stereo not shown); tested on = A-431; test = WST-8; setting = 1 µM, IDO1 inhibitor study, added: IFN-γ; endpoint = viability; result = 81.3%
SMILES = Nc1nccs1; tested on = Nuclear receptor subfamily 2 group C member 2 ligand-binding domain; test = SPR imaging; endpoint = Kd; result = 1.39 nM
SMILES = O=Cc1ccc([N+](=O)[O-])c(OC(=O)C2CCC2)c1; tested on = YWHAG/RELA, phospho-Ser45 p65 peptide (Homo sapiens, UniProt P61981+Q04206); test = ternary complex formation, stabilizer, fluorescence anisotropy; endpoint = EC50; result = > 1 mM
SMILES = O=C(O)c1cc(O)c2c(c1)C(=O)c1cccc(O)c1C2=O; tested on = HepaRG co-cultured with HK-2; test = MTT; setting = 133.33 µM, 48 h; scale = reference: untreated control; endpoint = cell viability; result = 8.87 ± 2.02%
SMILES = CCCCCCCCC(=O)c1cc(O)c(O)c(O)c1; tested on = COS-7; test = WST-8; setting = 10 µM, 24 h, 0.1% DMSO, unit not given; scale = reference: vehicle control; endpoint = metabolic activity; result = 0.58 ± 0.05
SMILES = CC(=O)Nc1cccc(-n2c(=O)n(C3CC3)c(=O)c3c(Nc4ccc(I)cc4F)n(C)c(=O)c(C)c32)c1; tested on = SW1417; setting = 0.1 µM, 72 h, unit not given; scale = reference: DMSO; endpoint = viability; result = 0.824 and 0.351 and 1.01 and 0.828 and 0.58 and 0.498
SMILES = O=C(CCCCCCC(=O)NO)NO; tested on = OCI-Ly1; setting = 1 µM, 120 h; endpoint = viability; result = 124%
SMILES = COc1ccc(-c2nn(-c3ccccc3)cc2C=NNc2cn[nH]c(=O)c2Cl)cc1; tested on = CEM; test = differential nuclear staining; setting = 48 h; endpoint = CC50; result = > 40 µM
SMILES = CC1CC(OC(=O)C(O)c2ccccc2)CC(C)(C)C1 (stereo not shown); tested on = Nuclear receptor subfamily 2 group C member 2 ligand-binding domain; test = SPR imaging; endpoint = Kd; result = 0.219 nM
SMILES = CCN(CCO)CCCC(C)Nc1ccnc2cc(Cl)ccc12 (stereo not shown); tested on = hiPSC-derived ventricular cardiomyocytes; test = IKr current; setting = 10 µM; endpoint = inhibition; result = 76.1%
SMILES = Cc1cc(C(=O)NOCCO)c(Nc2ccc(I)cc2F)n(C)c1=O; tested on = A-431; test = WST-8; setting = 1 µM, 25 h, added: IFN-γ; endpoint = viability; result = 112%
SMILES = COc1cccc(-c2ccc(NC(=O)C3=C(C(=O)O)CCC3)c(F)c2)c1; tested on = COS-7; setting = 10 µM, 24 h, 0.1% DMSO, unit not given; scale = reference: vehicle control; endpoint = confluence; result = 0.91 ± 0.03
SMILES = COc1ccc2c(Cc3ccccc3F)c3n(c(=O)c2c1OC)CCc1cc2c(cc1-3)OCO2; tested on = HFL1; test = cytotoxicity, CCK-8; setting = 24 h; endpoint = IC50; result = 40.3 µM
SMILES = c1cc(-c2nc(N3CCNCC3)c3c4c(sc3n2)CCCC4)ccn1; tested on = bovine primary retinal endothelial; test = Transwell; setting = 0.01 µM, added: VEGF, RITC-dextran 70 kDa; endpoint = VEGF-induced permeability; result = no effect
SMILES = COC[C@@H](CC(C)C)NC(=O)c1ccc(C)c(C)c1; tested on = primary human lymphocytes; test = refers to: structural aberrations; setting = 322 µg/mL, 4 h, without S9; endpoint = cells with aberrations; result = 0%
SMILES = COc1cc2c(c(O)c1OC)C(=O)c1c(cc(C)c(O)c1OC)C2=O; tested on = HepaRG co-cultured with HK-2; test = MTT; setting = 33.33 µM, 48 h; scale = reference: untreated control; endpoint = cell viability; result = 83.2 ± 5.53%
SMILES = COc1cccc2c1C(=O)c1c(O)c3c(c(O)c1C2=O)C[C@@](O)(C(=O)CO)C[C@@H]3O[C@H]1C[C@H](N)[C@H](O)[C@H](C)O1; tested on = COS-7; setting = 100 µM, 24 h, 0.1% DMSO, unit not given; scale = reference: control; endpoint = confluence; result = 0.73 ± 0.11
SMILES = COc1cc2ncnc(Nc3ccc(Oc4ccccc4)cc3C)c2cc1OC.O=C(O)C(F)(F)F; tested on = COLO 205 (BRAF V600E); test = resazurin; setting = 0.3 µM, 72 h, added: trametinib 0 nM; endpoint = viability; result = 0.874 fraction of control
SMILES = CCN(CC)CCCC(C)Nc1ccnc2cc(Cl)ccc12 (stereo not shown); tested on = hiPSC-derived ventricular cardiomyocytes; test = IKr current, perforated patch clamp; setting = 5 µM; endpoint = peak current; result = 7.5 pA and 2.6 pA and 32.2 pA and 6.2 pA
SMILES = CC1=CC[C@H]2[C@@H]([C@@H]1CC[C@H]1[C@]3(C)CC[C@H](O)C(C)(C)O[C@H]3CC[C@]1(C)O)C(C)(C)CC[C@]2(C)O; tested on = HEK293 MRP7 transfected; test = cell viability, MTT; setting = 72 h; endpoint = IC50; result = > 50 µM
SMILES = CC(=O)c1c(C)cc2cc(O)cc(O[C@@H]3O[C@H](CO)[C@@H](O)[C@H](O)[C@H]3O)c2c1O; tested on = HepaRG co-cultured with HK-2; test = MTT; setting = 133.33 µM, 48 h; scale = reference: untreated control; endpoint = cell viability; result = 69.4 ± 11.2%
SMILES = CCc1c(-c2ccccc2)c(-c2ccccc2)nn1-c1ccccc1-c1cccc(OCC(=O)O)c1; tested on = mouse bone marrow macrophages; test = CCK-8; setting = 20 µM, 4000 cells; scale = reference: untreated; endpoint = viability; result = 93.7% and 82% and 80.5% and 85.8% and 77.5% and 97.1%
SMILES = CN1C(C(=O)Nc2ccccn2)=C(O)c2sc(Cl)cc2S1(=O)=O; tested on = COS-7; setting = 30 µM, 24 h, 0.1% DMSO, unit not given; scale = reference: vehicle control; endpoint = apoptotic cells; result = 0.62 ± 0.12
SMILES = COc1c(O[C@@H]2O[C@H](CO)[C@@H](O)[C@H](O)[C@H]2O)c(C)cc2c1C(=O)c1c(O)cccc1C2=O; tested on = HepaRG co-cultured with HK-2; test = MTT; setting = 266.67 µM, 48 h; scale = reference: untreated control; endpoint = cell viability; result = 21.9 ± 1.47%
SMILES = CN1CC[C@H](c2c(O)cc(O)c3c(=O)cc(-c4ccccc4Cl)oc23)[C@H](O)C1; tested on = COS-7; test = WST-8; setting = 100 µM, 24 h, 0.1% DMSO, unit not given; scale = reference: control; endpoint = metabolic activity; result = 0.7 ± 0.25
SMILES = COc1cc2c(c(O)c1OC)C(=O)c1c(cc(C)c(O[C@@H]3O[C@H](CO)[C@@H](O)[C@H](O)[C@H]3O)c1OC)C2=O; tested on = HepaRG co-cultured with HK-2; test = MTT; setting = 66.67 µM, 48 h; scale = reference: untreated control; endpoint = cell viability; result = 64 ± 14.2%
SMILES = CCN1CCN(c2cc(N3CCN(CC)CC3)nc(NCCNc3ccnc4cc(Cl)ccc34)n2)CC1; tested on = COS-7; test = WST-8; setting = 10 µM, 24 h, 0.1% DMSO, unit not given; scale = reference: vehicle control; endpoint = metabolic activity; result = 0.77 ± 0.36
SMILES = [Cl-].[Cl-].[Ru+2].c1cnc2c(c1)c1nc[nH]c1c1cccnc12.c1cnc2c(c1)ccc1cccnc12.c1cnc2c(c1)ccc1cccnc12; tested on = SK-MEL-28; setting = concentration not given, normoxia, added: green light 523 nm; endpoint = photocytotoxicity; result = inactive
SMILES = Cc1ccc(CNC(=O)Cn2cc(CSc3nc4ccccc4[nH]3)nn2)cc1; tested on = HEK293; test = MTT; setting = 500 ppm; endpoint = viability; result = 9.11%
SMILES = COc1cc2ncnc(Nc3ccc(Oc4ccccc4)c(C)c3C)c2cc1OC.Cl; tested on = COLO 205 (BRAF V600E); test = resazurin; setting = 0.3 µM, 72 h, unit not given, added: trametinib; scale = reference: DMSO; endpoint = viability; result = 0.882
SMILES = C#Cc1cccc(Nc2ncnc3cc(OC)c(OCCCCCCC(=O)NO)cc23)c1; tested on = OCI-Ly1; setting = 0.1 µM, 120 h; endpoint = viability; result = 90.7%
SMILES = O=C(O)c1cc(O)c2c(c1)C(=O)c1cccc(O[C@@H]3O[C@H](CO)[C@@H](O)[C@H](O)[C@H]3O)c1C2=O; tested on = HepaRG co-cultured with HK-2; test = MTT; setting = 16.67 µM, 48 h; scale = reference: untreated control; endpoint = cell viability; result = 79.3 ± 9.76%
SMILES = O=C(NC[C@H](O)CO)c1ccncc1Nc1ccc(I)cc1F; tested on = A-431; test = WST-8; setting = 1 µM, 25 h, added: IFN-γ; endpoint = viability; result = 115%

Some of these lines once more:
SMILES = COc1cc2ncnc(Nc3ccc(Oc4ccccc4)cc3C)c2cc1OC.O=C(O)C(F)(F)F; tested on = COLO 205 (BRAF V600E); test = resazurin; setting = 0.3 µM, 72 h, added: trametinib 0 nM; endpoint = viability; result = 0.874 fraction of control
SMILES = O=C(CCCCCCC(=O)NO)NO; tested on = OCI-Ly1; setting = 1 µM, 120 h; endpoint = viability; result = 124%
SMILES = COc1cc2c(c(O)c1OC)C(=O)c1c(cc(C)c(O[C@@H]3O[C@H](CO)[C@@H](O)[C@H](O)[C@H]3O)c1OC)C2=O; tested on = HepaRG co-cultured with HK-2; test = MTT; setting = 66.67 µM, 48 h; scale = reference: untreated control; endpoint = cell viability; result = 64 ± 14.2%
SMILES = O=Cc1ccc([N+](=O)[O-])c(OC(=O)C2CCC2)c1; tested on = YWHAG/RELA, phospho-Ser45 p65 peptide (Homo sapiens, UniProt P61981+Q04206); test = ternary complex formation, stabilizer, fluorescence anisotropy; endpoint = EC50; result = > 1 mM
